Experimental data of several laboratories.
Parts stem from different laboratories: compare values within a part only.

Block 1
Target: Histone acetyltransferase KAT6A, winged helix 2, GST fusion (KAT6A, Homo sapiens, UniProt Q92794, residues 85-181)
Technique: protein binding microarray
Molecule type: double-stranded DNA, one strand shown
Sample: in vitro
Concentration: not given
Setting: 8-mer, flanks averaged, mean of 2 arrays, mostly near background
Relative to: not given
Direction: higher = stronger binding
Construct (chain): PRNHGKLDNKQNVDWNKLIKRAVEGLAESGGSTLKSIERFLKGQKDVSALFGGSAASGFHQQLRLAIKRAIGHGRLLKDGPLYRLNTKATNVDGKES
| Strand | E-score |
| --- | --- |
| GGCTTCTA | -0.0732 |
| CCTTATGC | 0.033 |
| ATTCTCGC | -0.109 |
| AAAAGGAT | 0.0105 |
| ACGCTTCG | -0.0224 |
| GGAAGAGA | -0.0189 |
| AGGTGTAA | -0.119 |
| CTCTTCTA | -0.153 |
| TCGAGTCA | -0.153 |
| AAGGCCGT | 0.00995 |
| GGTCGGAA | 0.162 |
| CCAACGGC | 0.085 |
| ATCTTTTG | -0.0981 |
| CAGGATTC | -0.0102 |
| CCTAGTCA | -0.198 |
| ACACCTCT | -0.143 |
| CCGGAGTC | 0.0308 |
| CGATGCTC | 0.123 |
| AATCTTGG | -0.0987 |
| ATATATCC | 0.105 |
| AGTGCAAC | 0.0276 |
| GCATACAA | 0.0731 |
| GAAATAAA | 0.134 |
| CCCTGTTA | -0.029 |
| AAGTTATA | 0.124 |

Block 2
Target: RNA binding protein fox-1 homolog 2, RRM domain, GST-SBP tag (RBFOX2, Homo sapiens, UniProt O43251-10, residues 100-194)
Technique: RNA Bind-n-Seq
Molecule type: RNA
Sample: in vitro
Concentration: 365 nM
Setting: natural RNA segment, single round, ends assumed
Relative to: no-protein control
Direction: higher = stronger binding
Construct (chain): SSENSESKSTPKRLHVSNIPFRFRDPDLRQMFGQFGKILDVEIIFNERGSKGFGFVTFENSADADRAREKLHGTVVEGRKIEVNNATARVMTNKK
| Strand | RBNS enrichment (R) |
| --- | --- |
| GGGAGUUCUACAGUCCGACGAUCUUCAAGCUAGGAAACGGAGAGAACACAGCUUGUUCAAAAGGGUUGAAUUUGGGCUCAAUCCAUAAUUUUUGACAUUUUCACAAAAAUAUGGUUUGCACUUUUUAAUCUAAUGGAAUUCUCGGGUGCCAA | 0.607 |
| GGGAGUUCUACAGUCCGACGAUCUACUGUAAUGAUUCUCAAAUUAACUGUAUUAGUGUAAGCUUUGUCACUAUGCGCUAAACGUAAUCCUGACUUUUUGACCCCAGUUACCAUUAAUAGUUUCUGGUUGACCAUGGAAUUCUCGGGUGCCAA | 0.546 |
| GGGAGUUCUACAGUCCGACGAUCAAAAAUCUAUAGCCAGGAGUUUUAUAAACUCACCUGGCACCUACUGAGCUAAAAUAUGCAAAAUCUGAACUAAAAUAUGCAAAAUCACUUUAAUAUAAUUUGACAUUUGAUGGAAUUCUCGGGUGCCAA | 0.62 |
| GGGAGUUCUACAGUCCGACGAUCCACAUACAUUUUUAAAAUCGAGUAUAGAAUUCACCAGGGUUGAAAAUGACUGGCAGACAAUAUAUGCAUGGACCUUGAUAUGGGUGGAUAGAUUAAGGUUGAACCUUAGAUGGAAUUCUCGGGUGCCAA | 5.34 |
| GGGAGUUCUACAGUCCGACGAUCGAAACGCCCCGUGUUAAUAACUUGGUCUGAAAUUGUUUUUAUGAGCCGGGCCCCCUGUGCCUCUAGCAUAUGUGUAUUGACUCUCAUAGUUACCCUUUUCGUUUACUGUGUGGAAUUCUCGGGUGCCAA | 0.496 |
| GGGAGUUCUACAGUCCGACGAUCUUCAGUAUCUGAGUACUGGAAGUGAAACAUGAGGAAUGCUUUAGUGUAAUGUGGGAGAACUUUUUUGUAAAUUUAAUGCAAUUGAAAAAGUUUUCAAAUUCAAUUAAGAUUGGAAUUCUCGGGUGCCAA | 1.81 |
| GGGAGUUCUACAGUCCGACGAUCGGCUGUCACUGGCUGCUCGAGUCUCCAGCGUAAGCGCUUCACUUUGACUUAGGGUCAUAGUACGAGGGGAAUCCACUCCGUGGAAACCUCGGAAUGUCUGAGAAGGGAUAUGGAAUUCUCGGGUGCCAA | 0.452 |
| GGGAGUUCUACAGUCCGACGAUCUGGGCUUUUCCCCACCCAGAGAAUAGCCCCCUUCGAUACACAUCAGCUGGAUUUUCAAAAGCUUCAAAGUCUUGGUCUGUGAGUCACUCUUCAGUUUGGGAGCUGGGUCUUGGAAUUCUCGGGUGCCAA | 0.344 |
| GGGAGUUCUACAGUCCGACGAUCUUGUGAAAGCUAACUUUAUGAUUUCAAGCACACUUUCUACAUGAGAAACCCCUAAUGUGUGUCCAUAUGAUCUUUCUGUACAUUCUAUUCUCUUACAAAUCUGUGCAUCAUGGAAUUCUCGGGUGCCAA | 0.763 |
| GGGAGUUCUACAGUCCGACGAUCUAGAUCUCCUGGGCCGGGCGUUCCAAACAGUUGUGAGCUACUGUGUGAGUGCUAGGAGCAAACCUGGAUCCUCUGCAAGAGCAACGAAUACUGGUAACCCCUGAACCAUUUGGAAUUCUCGGGUGCCAA | 1.06 |
| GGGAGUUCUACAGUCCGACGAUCUGGAUCCAUUUCCCUGGUCUUGGCCUCACUCUCAUGCAGGCUUUCCUCUUGUGUUGGCAAGAUGGCUGCCAACUCUUGGCAAUUCAUACAUCCUUGUUUCUGUCUGGUAGUGGAAUUCUCGGGUGCCAA | 0.497 |
| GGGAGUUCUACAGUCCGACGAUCUGGUGCCCUUGUUGACUGUCUGGGAAGAUGAAUAUACCAGGGUUUCCAAAUCCAGCCCUUUUCGUUCUCUUAAUGAUGAAUCACCCAAAGACCUGGCUUUCAUGCUUCCUUGGAAUUCUCGGGUGCCAA | 0.295 |

Block 3
Target: Interferon regulatory factor 3, full length, phosphomimetic (IRF3, Homo sapiens, UniProt Q14653, residues 1-427, S386D/S396D/S398D/S402D/T404D/S405D)
Technique: protein-binding microarray
Molecule type: double-stranded DNA, one strand shown
Sample: in vitro
Concentration: 2540 nM top
Setting: 60-bp whole probe
Together with: salmon DNA 0.4 mg/ml
Relative to: random background probes
Direction: higher = stronger binding
Shared flanks, not repeated: GCCTAGCAC … GTCTTGATTCGCTTGACGCTGCTG
Construct (chain): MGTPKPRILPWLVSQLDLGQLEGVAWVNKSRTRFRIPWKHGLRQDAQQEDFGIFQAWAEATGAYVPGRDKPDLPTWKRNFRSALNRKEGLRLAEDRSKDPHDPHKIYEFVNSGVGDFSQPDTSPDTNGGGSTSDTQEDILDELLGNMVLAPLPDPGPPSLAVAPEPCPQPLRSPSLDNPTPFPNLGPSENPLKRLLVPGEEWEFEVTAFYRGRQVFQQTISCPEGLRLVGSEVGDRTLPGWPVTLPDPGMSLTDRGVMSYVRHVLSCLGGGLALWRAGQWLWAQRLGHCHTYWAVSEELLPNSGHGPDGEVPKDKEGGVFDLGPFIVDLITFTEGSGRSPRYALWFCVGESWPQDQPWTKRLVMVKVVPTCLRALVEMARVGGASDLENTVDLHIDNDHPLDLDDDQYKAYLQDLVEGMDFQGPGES
| Strand | fitted relative affinity [z-score] |
| --- | --- |
| GACGGACTGGACTTTCGGAACGTGCTA | 1.47 |
| TTAGGTATCGGACTGGGCTAGTGCTAG | 1.12 |
| GACGATTTGGGGTTTCGAGACGTGCTA | 0.66 |
| GACGGTTTCCTTAACCTGACGTGCTAG | 5.12 |
| TTAGGAATCGGTTTCGGTTAGTGCTAG | 6.42 |
| TCACTTTTTAAGATCTGACTGTGCTAG | 1.17 |
| GACGTTTCCAGTTTCGAGACGTGCTAG | 4.76 |
| TTAGGACAGGACTTTCGGTTAGTGCTA | 1.44 |
| TCAAATTACCTTTTCACACTGTGCTAG | 3.6 |
| GACGGACTGGGGACTGGGGTCGTGCTA | -0.806 |
| GACGAACTGAGTATCAAGACGTGCTAG | -0.0265 |
| TTTGCTTTAGTCATTCACTGAGTGCTA | -0.0527 |
| GACGGACTGGGGTATCCGGACGTGCTA | -0.231 |
| TACGGACTGCTACTGCTGACGTGCTAG | -0.699 |
| TCACTTTTTTTTCTTTAACTGTGCTAG | 2.18 |
| TACGGTCTCCTACTGCTGACGTGCTAG | 1.05 |
| TTAGAACTGAGTCTGGATTAGTGCTAG | -0.456 |
| TTAGGTTTCCTTATCATTTAGTGCTAG | 8.13 |
| TTAGGAGTGGACTATCGGTTAGTGCTA | -0.555 |

Block 4
Target: RING finger protein unkempt homolog, zinc fingers 1-6, SBP tag (UNK, Homo sapiens, UniProt Q9C0B0, residues 30-357)
Sequence of UniProt Q9C0B0 (30-357, looked up): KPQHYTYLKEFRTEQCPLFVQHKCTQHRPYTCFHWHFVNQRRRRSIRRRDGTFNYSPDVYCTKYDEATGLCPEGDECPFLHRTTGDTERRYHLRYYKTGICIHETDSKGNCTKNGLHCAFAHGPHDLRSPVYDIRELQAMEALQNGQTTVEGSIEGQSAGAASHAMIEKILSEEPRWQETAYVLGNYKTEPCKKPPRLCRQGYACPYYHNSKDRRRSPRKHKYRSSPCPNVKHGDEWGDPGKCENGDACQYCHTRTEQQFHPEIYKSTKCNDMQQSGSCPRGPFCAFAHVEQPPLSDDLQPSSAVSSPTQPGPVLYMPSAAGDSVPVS
Technique: RNA Bind-n-Seq
Molecule type: RNA
Sample: in vitro
Concentration: 100 nM
Setting: RNA with constant flanks, vertebrate orthologous sites, ends assumed
Relative to: input RNA pool
Direction: higher = stronger binding
| Strand | bound/input enrichment [ratio] |
| --- | --- |
| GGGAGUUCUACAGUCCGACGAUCUAUUAGUGUCAUACCAGCAUAUUAACCUCUCGUCUGUGCACAGCUUCAAAUGUUACCGUCUAGUUAGAUUUUUAUUUAAAAUAUGAAAAACUGCUUUUCCCAAGACGUUUUUUAAAACAACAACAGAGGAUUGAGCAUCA | 1.61 |
| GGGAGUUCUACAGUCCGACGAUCCUCCCUCCCAGGACUGAGCAGUGGGGCCUGGGCCCACUGGCCACAUCAGCCAGGCCAUUUUAGCUCCUUUUUUUUUUUUUUUUUAAACCGUGACCUUGUUAUCCUGUAUAUAAGUGGAGACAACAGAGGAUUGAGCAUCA | 2.96 |
| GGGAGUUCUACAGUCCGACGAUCAUCCCUCAGUGACAGUAUGCCAUCUGUAGCUGACUCCCACUCUAGUCAUUUUUCUGAAUUUAGUUGUUCUGACCUAGAAAGCAUGAAAACUUCUUGUAGCCAUGGUUCCAGUGAUUAUCACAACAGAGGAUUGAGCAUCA | 4.24 |
| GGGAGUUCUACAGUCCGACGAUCAUCUGGACCUUUGGAGCCGAACCAGAGAGCUAGCAAAAGUAAGGCAGACUUGUAAAAUUAUAGCCAUGUACAGCUGCACAACAACAGUCCUACCACUAGCAGCUGCGUUAAAGUAUUUAUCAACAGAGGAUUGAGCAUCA | 0.466 |
| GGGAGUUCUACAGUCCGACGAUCCUGAAGCUUUGUGUUUGGCUGCACCUGCAUAAGCUGCUACAAAUAGAAUAAAGAACUUCAUAGCCUGUAUCUAUCAUUUAGAUGCAUGGGAAAAUGGGCUUUGCACACAGUGGGUUUGGACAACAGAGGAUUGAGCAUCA | 0.834 |
| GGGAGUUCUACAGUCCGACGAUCGUUGUGACCCAUUUAACAUUCACAAAAAGCUUGCAAAGAAAAAUUUGCAUGCUAUCGAUUUAGAUGAUGCAACCUUUCUAAGUGCCAAGUUUGGAAGACAGCUUGUACCUGGUUGGAAGCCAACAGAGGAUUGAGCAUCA | 0.523 |
| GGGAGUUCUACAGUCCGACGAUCAGCAACCCAAGGAUUCAGGACUGGUUUUACAAAUAUACCAAGUAGAUAUGGAACAAACAAUAGAAUUGGGCAACCAAGAUCAUAAUGUACUGUAAUUUAAUUUAUUUUUUGAAGAAUAUUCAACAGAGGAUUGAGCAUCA | 0.537 |
| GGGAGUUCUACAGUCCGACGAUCAGCCGGACUAGAUAGGGGAAAAAAAAGCGUAAAAAUAUUACACAAUAUAUAUAUAUACAGGCAACAAAACUCAGCCAGCCGUCUGGAACGUUAGAGCUCUAAGCAGACACACGCGGCCCCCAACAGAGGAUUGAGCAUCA | 0.54 |
| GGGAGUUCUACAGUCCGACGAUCGGGAUGGCGGGGUGGGAGGGAUACGUGGCCGUUUUGAUGUUAUUGGCAUUAUUAAGUGUUCCAGGGAUUGUCUUGUCUUGAAUUUUUCCCAUUUUGUUGUUUUCCCCUUUAAUUGGAUGCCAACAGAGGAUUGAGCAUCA | 0.515 |
| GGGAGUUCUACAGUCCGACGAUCUUCAGGCACAGUUGUCCAGCACUCAGCAUUCUUUGCAAGGUUACCUAACCAGUGGAAGCGAAGUCGCUUUCCAGGAUCCGUCAAGGCAAUCAGCCAUGCCCUGCAGCCCAAUCGGAGACACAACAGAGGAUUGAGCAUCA | 0.368 |
| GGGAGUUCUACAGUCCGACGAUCUUCAGGCUCAACUGACUGUUUCACAGCAUUCCUUACACAGCUAUUUAACGAGUACAAGUGGAGUUAAUUUUCAGGAUACAUCCAGGCACUCGGCGUUGUCCUGCAGUCCGGUUGGAGAUGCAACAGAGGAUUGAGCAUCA | 0.216 |

Excerpt of the above (block 1):
| Strand | E-score |
| --- | --- |
| ATTCTCGC | -0.109 |
| GGAAGAGA | -0.0189 |
| GAAATAAA | 0.134 |
| ATATATCC | 0.105 |
| ACGCTTCG | -0.0224 |
| TCGAGTCA | -0.153 |
| GCATACAA | 0.0731 |
| AAGGCCGT | 0.00995 |
| AGTGCAAC | 0.0276 |
| ACACCTCT | -0.143 |
